# Published values from different studies.
# Protocols differ between the studies behind these lines. “And” joins repeats or separate records; there may be more than shown. ± marks the error that the study gave.
# ampC: Beta-lactamase (ampC, Escherichia coli K-12, UniProt P00811)
# MC1R: Melanocyte-stimulating hormone receptor (MC1R, Homo sapiens, UniProt Q01726)
# ache: Acetylcholinesterase (ache, Electrophorus electricus, UniProt O42275)
# Sigmar1: Sigma non-opioid intracellular receptor 1 (Sigmar1, Rattus norvegicus, UniProt Q9R0C9)
# Mannan-binding lectin serine protease 2: Mannan-binding lectin serine protease 2 (Homo sapiens, UniProt O00187)
# Oprk1: Kappa-type opioid receptor (Oprk1, Rattus norvegicus, UniProt P34975)
SMILES,target,test,test system,setting,Ki
CC[C@H](C)[C@H](NC(=O)[C@@H](CNC(=O)[C@@H]1CCCN1C(=O)[C@H](CCCNC(=N)N)NC(=O)[C@@H](N)CCCNC(=N)N)Cc1ccc(O)cc1)C(=O)N[C@@H](CC(C)C)C(=O)O,"Neurotensin receptor type 2 (NTSR2, Homo sapiens, UniProt O95665)","ligand displacement, radioligand",,cell membranes,5.6 µM
Cc1cc2c(cc1Cl)-c1c(c(C(=O)NCC34CC5CC(CC(C5)C3)C4)nn1-c1ccc(Cl)cc1Cl)C2,"Cannabinoid receptor 1 (Cnr1, Mus musculus, UniProt P47746)","binding, radioligand displacement",mouse brain homogenate without cerebellum,"added: [3H]CP-55,940",> 5 µM
CNC(C)C(=O)NC1COC2CCC(C(=O)NCc3ccccc3)N2C1=O (mixture of isomers),"Baculoviral IAP repeat-containing protein 3, BIR3 (BIRC3, Homo sapiens, UniProt Q13489)","ligand displacement, FP",,,28.9 µM
CC(C)C(=O)N[C@H]1c2nc(CCc3ccccc3)cn2[C@H](CO)[C@@H](O)[C@@H]1O,"Protein O-GlcNAcase (OGA, Homo sapiens, UniProt O60502)","enzyme activity, inhibitor",,,0.0044 µM
O=C1OC(=O)C2C3C=CC(C3)C12 (stereo not drawn),ampC,,,,1900 µM
CC[C@H](C)[C@H](NC(=O)CN)C(=O)N[C@H](C(=O)N[C@@H](CC(N)=O)C(=O)N[C@H](C(=O)N[C@@H](CC(C)C)C(=O)N[C@@H](CCC(N)=O)C(=O)N[C@@H](CCC(N)=O)C(=O)N[C@@H](Cc1ccc(O)cc1)C(=O)N[C@@H](Cc1ccc(O)cc1)C(=O)N[C@H]1CSSC[C@@H]2NC(=O)[C@H](CCCCN)NC(=O)[C@H](CCCNC(=N)N)NC(=O)CNC(=O)[C@H](CCCNC(=N)N)NC(=O)[C@H]([C@@H](C)O)NC(=O)[C@H](CO)NC(=O)[C@@H]3CSSC[C@H](NC(=O)[C@H](CCCNC(=N)N)NC(=O)CNC(=O)CNC(=O)[C@H](CCCNC(=N)N)NC(=O)[C@H](C(C)C)NC(=O)[C@H](CCC(N)=O)NC1=O)C(=O)N[C@@H](C)C(=O)N[C@@H](C(C)C)C(=O)N[C@@H](CC(C)C)C(=O)N[C@@H](CO)C(=O)N[C@@H](CSSC[C@@H](C(=O)N[C@@H](CCCNC(=N)N)C(=O)N[C@@H](CCCNC(=N)N)C(=O)N[C@@H](CCCCN)C(=O)N[C@@H](CCCCN)C(N)=O)NC2=O)C(=O)N[C@@H](CC(C)C)C(=O)N1CCC[C@H]1C(=O)N[C@@H](CCCCN)C(=O)N[C@@H](CCC(=O)O)C(=O)N[C@@H](CCC(=O)O)C(=O)N[C@@H](CCC(N)=O)C(=O)N[C@@H]([C@@H](C)CC)C(=O)NCC(=O)N[C@@H](CCCCN)C(=O)N3)[C@@H](C)O)[C@@H](C)CC,MC1R,ligand displacement in cells,,,0.216 µM
O=c1oc2c(CNCCc3cccc(F)c3)c(O)ccc2c2c1CCC2,ache,"enzyme activity, inhibitor",,,0.21 µM
CC(C)=CCCC1(C)C=Cc2c(ccc3cc(-c4cc(O)cc(O)c4CC=C(C)C)oc23)O1 (stereo not drawn),ache,"enzyme activity, inhibitor",,,1.4 µM
CNC(=O)C1CCN(c2ccccc2NC(=O)c2ccc(-c3cc(O)ccc3C)c(C)n2)CC1,"Ephrin type-B receptor 1 (EPHB1, Homo sapiens, UniProt P54762)","cell-free assay, TR-FRET",,,0.0005 µM
Cc1cc(O)cc(C)c1CC(N)C(=O)NC1CCNc2c(C(=O)Nc3ccccc3)cc(Cc3ccccc3)cc21 (stereo not drawn),"Kappa-type opioid receptor (OPRK1, Homo sapiens, UniProt P41145)","ligand displacement, radioligand",,cell membranes,0.029 µM
CCC(=O)c1ccc2c(c1)sc(=O)n2CCCN1CCCCCC1,Sigmar1,"binding, radioligand binding",rat liver membranes,added: [3H](+)-pentazocine 5 nM,0.0037 ± 0.0003 µM
CC[C@H](C)[C@H](NC(=O)[C@@H]1CSSC[C@H](NC(=O)[C@H](Cc2ccc(O)cc2)NC(=O)CNC(C)=O)C(=O)N[C@@H](CO)C(=O)N[C@@H](CCCNC(=N)N)C(=O)N[C@@H](CO)C(=O)N[C@@H](Cc2ccc(O)cc2)C(=O)N2CCC[C@H]2C(=O)N2CCC[C@H]2C(=O)N[C@@H](C(C)C)C(=O)N1)C(=O)N1CCC[C@H]1C(=O)N[C@@H](CC(=O)O)C(N)=O,Mannan-binding lectin serine protease 2,,,added: 250 µM Z-L-Lys-SBzl substrate,0.1 ± 0.01 µM
COC(=O)N(C)[C@@H](Cc1ccccc1)C(=O)N[C@@H](Cc1ccccc1)C(=O)N[C@@H](Cc1c[nH]c2ccccc12)C(=O)N[C@@H](CCCNC(=N)N)C(=O)N[C@@H](CC(C)C)C(=O)N[C@@H](CCCNC(=N)N)C(=O)N[C@@H](CCCNC(=N)N)C(=O)N[C@H](C)C(=O)N[C@@H](CCCNC(=N)N)C(=O)N1CCC[C@H]1C(=O)N[C@@H](CCCCN)C(N)=O,Oprk1,"ligand displacement, radioligand",,,0.00952 µM
O=c1sc2ccccc2n1CCN1CCCC1,Sigmar1,"binding, radioligand binding",rat liver membranes,added: [3H](+)-pentazocine 5 nM,0.578 ± 0.041 µM
COC(=O)N(C)[C@@H](Cc1ccccc1)C(=O)N[C@@H](Cc1ccccc1)C(=O)N[C@@H](CC1CCCCC1)C(=O)N[C@@H](CCCNC(=N)N)C(=O)N[C@@H](CC(C)C)C(=O)N[C@@H](CCCNC(=N)N)C(=O)N[C@@H](CCCNC(=N)N)C(=O)N[C@H](C)C(=O)N[C@@H](CCCNC(=N)N)C(=O)N1CCC[C@H]1C(=O)N[C@@H](CCCCN)C(N)=O,Oprk1,"ligand displacement, radioligand",,,0.0036 µM
N=C(N)NCCC[C@@H]1NC(=O)[C@H](CCCNC(=N)N)NC(=O)[C@H](NC(=O)[C@H](Cc2ccccc2)NC(=O)CNC(=O)CNC(=O)[C@H](Cc2ccccc2)NCc2ccccc2)CC(=O)NC[C@@H](C(=O)N[C@@H](CCCNC(=N)N)C(=O)N2CCC[C@H]2C(=O)N[C@@H](CCCCN)C(N)=O)NC1=O,Oprk1,cell-free assay,,,0.0687 µM
O=c1sc2ccccc2n1CCCCCCN1CCCCCC1,Sigmar1,"binding, radioligand binding",rat liver membranes,added: [3H](+)-pentazocine 5 nM,0.0075 ± 0.0006 µM
CC(C)[C@H](NC(=O)c1ccc(CNc2nc3c(c(=O)[nH]2)CCC3)cc1)C(=O)NC1CNC1,"Collagenase 3 (MMP13, Homo sapiens, UniProt P45452)","enzyme activity, inhibitor",,,0.0281 µM
COc1cncc(B(O)O)c1,ampC,"enzyme activity, inhibitor",,added: CENTA,3.55 µM
CC[C@H](C)[C@H](NC(=O)[C@@H]1CSSC[C@H](NC(=O)[C@H](Cc2ccc(O)cc2)NC(=O)CN)C(=O)N[C@@H](CO)C(=O)N[C@@H](CCCNC(=N)N)C(=O)N[C@@H](CO)C(=O)N[C@@H](Cc2ccc(O)cc2)C(=O)N2CCC[C@H]2C(=O)N2CCC[C@H]2C(=O)N[C@@H](C(C)C)C(=O)N1)C(=O)N1CCC[C@H]1C(=O)N[C@@H](CC(=O)O)C(N)=O,Mannan-binding lectin serine protease 2,,,added: 250 µM Z-L-Lys-SBzl substrate,0.17 µM
N=C(N)NCCC[C@H](NC(=O)[C@H](Cc1c[nH]c2ccccc12)NC(=O)[C@H](CCCCN)NC(=O)CNC(=O)CCC(=O)NN=Cc1cc(C=NNC(=O)CCC(=O)NCC(=O)N[C@@H](CCCCN)C(=O)N[C@@H](Cc2c[nH]c3ccccc23)C(=O)N[C@@H](CCCNC(=N)N)C(N)=O)cc(C=NNC(=O)CCC(=O)NCC(=O)N[C@@H](CCCCN)C(=O)N[C@@H](Cc2c[nH]c3ccccc23)C(=O)N[C@@H](CCCNC(=N)N)C(N)=O)c1)C(N)=O,"Tryptase beta-2 (TPSB2, Homo sapiens, UniProt P20231)",non-competitive inhibitor,,,0.012 µM and 0.0125 µM
CC(=O)N[C@@H](CCCNC(=N)N)C(=O)N[C@@H](Cc1ccc(O)cc1)C(=O)N[C@@H](CCCNC(=N)NC(=O)NCCCCN)C(=O)N[C@H](CC(C)C)C(=O)N[C@@H](CCCNC(=N)N)C(=O)N[C@@H](Cc1ccc(O)cc1)C(N)=O,"Neuropeptide Y receptor type 5 (NPY5R, Homo sapiens, UniProt Q15761)","ligand displacement, radioligand",,,> 5 µM
CC[C@H](C)[C@H](NC(=O)CN)C(=O)N[C@H](C(=O)N[C@@H](CC(N)=O)C(=O)N[C@H](C(=O)N[C@@H](CC(C)C)C(=O)N[C@@H](CCC(N)=O)C(=O)N[C@@H](CCCCN)C(=O)N[C@@H](Cc1ccc(O)cc1)C(=O)N[C@@H](Cc1ccc(O)cc1)C(=O)N[C@H]1CSSC[C@@H]2NC(=O)[C@H](CCCCN)NC(=O)[C@H](CCCNC(=N)N)NC(=O)CNC(=O)[C@H](CCCNC(=N)N)NC(=O)[C@H]([C@@H](C)O)NC(=O)[C@H](CO)NC(=O)[C@@H]3CSSC[C@H](NC(=O)[C@H](CCCNC(=N)N)NC(=O)CNC(=O)CNC(=O)[C@H](CCCNC(=N)N)NC(=O)[C@H](C(C)C)NC(=O)[C@H](CCCNC(=N)N)NC1=O)C(=O)N[C@@H](C)C(=O)N[C@@H](C(C)C)C(=O)N[C@@H](CC(C)C)C(=O)N[C@@H](CO)C(=O)N[C@@H](CSSC[C@@H](C(=O)N[C@@H](CCCNC(=N)N)C(=O)N[C@@H](C)C(=O)N[C@@H](CCCCN)C(=O)N[C@@H](C)C(N)=O)NC2=O)C(=O)N[C@@H](CC(C)C)C(=O)N1CCC[C@H]1C(=O)N[C@@H](CCCCN)C(=O)N[C@@H](CCC(=O)O)C(=O)N[C@@H](CCC(=O)O)C(=O)N[C@@H](CCC(N)=O)C(=O)N[C@@H]([C@@H](C)CC)C(=O)NCC(=O)N[C@@H](CCCCN)C(=O)N3)[C@@H](C)O)[C@@H](C)CC,MC1R,ligand displacement in cells,,,0.045 µM
CC[C@H](C)[C@H](NC(=O)[C@H](CCCNC(=N)N)NC(=O)[C@H](CCCNC(=N)N)NC(=O)[C@@H]1C/C=C/COc2ccc(cc2)C[C@H](NC(=O)[C@H](Cc2ccccc2)NC(=O)[C@H](Cc2ccccc2)NC(C)=O)C(=O)N[C@@H](CCCNC(=N)N)C(=O)N1)C(=O)N[C@@H](CCCNC(=N)N)C(=O)N1CCC[C@H]1C(=O)N[C@@H](CCCCN)C(N)=O,Oprk1,"ligand displacement, radioligand",,,0.398 µM

# Some of these lines once more:
SMILES,target,test,test system,setting,Ki
COC(=O)N(C)[C@@H](Cc1ccccc1)C(=O)N[C@@H](Cc1ccccc1)C(=O)N[C@@H](CC1CCCCC1)C(=O)N[C@@H](CCCNC(=N)N)C(=O)N[C@@H](CC(C)C)C(=O)N[C@@H](CCCNC(=N)N)C(=O)N[C@@H](CCCNC(=N)N)C(=O)N[C@H](C)C(=O)N[C@@H](CCCNC(=N)N)C(=O)N1CCC[C@H]1C(=O)N[C@@H](CCCCN)C(N)=O,Oprk1,"ligand displacement, radioligand",,,0.0036 µM
